Published values pooled from the literature.
Compare with care: the assays were run in different laboratories. Several values in a cell are separate wells, animals, samples, runs or records. ± gives the spread as reported.
ADORA1: Adenosine receptor A1 (ADORA1, Homo sapiens, UniProt P30542)
Sequence of UniProt P30542 (whole entry, looked up): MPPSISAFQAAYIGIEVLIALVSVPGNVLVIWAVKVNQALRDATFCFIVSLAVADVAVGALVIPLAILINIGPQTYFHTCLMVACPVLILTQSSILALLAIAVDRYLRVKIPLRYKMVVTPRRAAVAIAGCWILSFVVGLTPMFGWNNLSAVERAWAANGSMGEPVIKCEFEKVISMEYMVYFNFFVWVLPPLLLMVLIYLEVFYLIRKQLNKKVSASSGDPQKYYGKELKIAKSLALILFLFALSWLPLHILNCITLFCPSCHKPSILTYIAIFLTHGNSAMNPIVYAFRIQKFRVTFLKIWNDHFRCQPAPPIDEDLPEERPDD
MAPK10: Mitogen-activated protein kinase 10 (MAPK10, Homo sapiens, UniProt P53779)
Sequence of UniProt P53779 (whole entry, looked up): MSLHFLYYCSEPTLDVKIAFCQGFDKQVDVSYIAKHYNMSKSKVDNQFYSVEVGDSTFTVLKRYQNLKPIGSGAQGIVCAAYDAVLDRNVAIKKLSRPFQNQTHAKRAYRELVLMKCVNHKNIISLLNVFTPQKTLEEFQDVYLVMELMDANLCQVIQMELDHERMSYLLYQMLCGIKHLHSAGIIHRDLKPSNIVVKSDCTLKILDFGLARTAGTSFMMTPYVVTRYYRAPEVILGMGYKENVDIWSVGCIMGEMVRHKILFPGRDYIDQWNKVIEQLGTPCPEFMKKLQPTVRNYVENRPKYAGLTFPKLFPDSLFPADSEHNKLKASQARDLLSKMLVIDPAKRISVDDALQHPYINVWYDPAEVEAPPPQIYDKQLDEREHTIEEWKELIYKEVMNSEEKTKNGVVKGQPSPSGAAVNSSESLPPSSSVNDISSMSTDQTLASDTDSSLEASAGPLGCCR
RIPK2: Receptor-interacting serine/threonine-protein kinase 2 (RIPK2, Homo sapiens, UniProt O43353)
Sequence of UniProt O43353 (whole entry, looked up): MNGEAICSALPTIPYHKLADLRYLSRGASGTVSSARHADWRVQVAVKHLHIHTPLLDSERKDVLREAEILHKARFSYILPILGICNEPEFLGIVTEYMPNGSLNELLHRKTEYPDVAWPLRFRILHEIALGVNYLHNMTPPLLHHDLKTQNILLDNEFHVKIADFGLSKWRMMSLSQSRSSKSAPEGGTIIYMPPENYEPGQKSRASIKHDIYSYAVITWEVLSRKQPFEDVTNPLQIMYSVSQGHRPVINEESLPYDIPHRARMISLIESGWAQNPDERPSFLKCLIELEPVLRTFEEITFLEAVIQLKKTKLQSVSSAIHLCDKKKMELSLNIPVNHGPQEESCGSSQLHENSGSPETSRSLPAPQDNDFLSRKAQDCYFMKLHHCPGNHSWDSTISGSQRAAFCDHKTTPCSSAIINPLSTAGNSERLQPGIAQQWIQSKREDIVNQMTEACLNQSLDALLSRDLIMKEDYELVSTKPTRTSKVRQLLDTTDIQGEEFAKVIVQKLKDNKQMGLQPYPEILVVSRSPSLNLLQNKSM
Sequence of UniProt Q15391 (whole entry, looked up): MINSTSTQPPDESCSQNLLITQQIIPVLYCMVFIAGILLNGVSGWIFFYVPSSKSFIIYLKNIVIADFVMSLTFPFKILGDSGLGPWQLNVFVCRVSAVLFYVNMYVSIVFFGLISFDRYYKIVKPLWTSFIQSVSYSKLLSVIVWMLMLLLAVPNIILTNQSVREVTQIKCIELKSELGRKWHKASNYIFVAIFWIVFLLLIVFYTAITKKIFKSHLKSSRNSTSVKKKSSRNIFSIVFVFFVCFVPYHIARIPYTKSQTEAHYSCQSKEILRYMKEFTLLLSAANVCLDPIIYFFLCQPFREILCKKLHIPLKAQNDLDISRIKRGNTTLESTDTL
Sequence of UniProt P18031 (whole entry, looked up): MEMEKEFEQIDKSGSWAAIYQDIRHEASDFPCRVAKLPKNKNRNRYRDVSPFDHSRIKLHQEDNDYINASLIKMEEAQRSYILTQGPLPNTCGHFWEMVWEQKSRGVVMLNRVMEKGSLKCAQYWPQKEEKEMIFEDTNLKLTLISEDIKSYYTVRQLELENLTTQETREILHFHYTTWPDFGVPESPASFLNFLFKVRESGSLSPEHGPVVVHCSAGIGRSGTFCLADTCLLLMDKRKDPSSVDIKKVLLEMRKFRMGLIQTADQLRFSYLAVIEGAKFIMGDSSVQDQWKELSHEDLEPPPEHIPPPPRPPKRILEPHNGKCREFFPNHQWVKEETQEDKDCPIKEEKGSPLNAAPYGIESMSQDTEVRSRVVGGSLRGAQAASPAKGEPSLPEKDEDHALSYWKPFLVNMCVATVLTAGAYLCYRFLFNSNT
Sequence of UniProt P30531 (whole entry, looked up): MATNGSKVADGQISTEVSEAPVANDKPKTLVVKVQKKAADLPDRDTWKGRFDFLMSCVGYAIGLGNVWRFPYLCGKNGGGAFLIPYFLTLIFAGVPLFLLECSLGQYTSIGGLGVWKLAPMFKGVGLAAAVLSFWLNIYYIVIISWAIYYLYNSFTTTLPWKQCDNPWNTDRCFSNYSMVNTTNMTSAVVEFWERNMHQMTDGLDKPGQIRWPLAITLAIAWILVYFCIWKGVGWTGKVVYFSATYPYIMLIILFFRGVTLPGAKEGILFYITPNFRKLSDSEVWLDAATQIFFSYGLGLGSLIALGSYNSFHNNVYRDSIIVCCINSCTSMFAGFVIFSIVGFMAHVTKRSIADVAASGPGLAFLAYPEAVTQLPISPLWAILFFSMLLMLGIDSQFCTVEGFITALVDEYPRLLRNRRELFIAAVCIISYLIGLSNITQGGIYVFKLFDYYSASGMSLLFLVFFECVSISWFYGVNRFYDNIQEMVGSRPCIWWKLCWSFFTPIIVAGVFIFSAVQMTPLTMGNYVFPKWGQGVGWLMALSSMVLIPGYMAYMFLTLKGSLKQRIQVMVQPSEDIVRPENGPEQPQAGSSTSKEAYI
Sequence of UniProt P20231 (whole entry, looked up): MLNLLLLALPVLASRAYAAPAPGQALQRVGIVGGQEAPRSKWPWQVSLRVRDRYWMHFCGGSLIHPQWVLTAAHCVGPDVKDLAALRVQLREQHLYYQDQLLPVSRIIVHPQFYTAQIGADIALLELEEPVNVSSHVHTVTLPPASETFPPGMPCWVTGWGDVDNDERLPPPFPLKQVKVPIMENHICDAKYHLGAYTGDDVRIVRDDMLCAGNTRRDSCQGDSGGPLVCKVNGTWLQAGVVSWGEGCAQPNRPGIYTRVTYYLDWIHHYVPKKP
Sequence of UniProt P40763 (whole entry, looked up): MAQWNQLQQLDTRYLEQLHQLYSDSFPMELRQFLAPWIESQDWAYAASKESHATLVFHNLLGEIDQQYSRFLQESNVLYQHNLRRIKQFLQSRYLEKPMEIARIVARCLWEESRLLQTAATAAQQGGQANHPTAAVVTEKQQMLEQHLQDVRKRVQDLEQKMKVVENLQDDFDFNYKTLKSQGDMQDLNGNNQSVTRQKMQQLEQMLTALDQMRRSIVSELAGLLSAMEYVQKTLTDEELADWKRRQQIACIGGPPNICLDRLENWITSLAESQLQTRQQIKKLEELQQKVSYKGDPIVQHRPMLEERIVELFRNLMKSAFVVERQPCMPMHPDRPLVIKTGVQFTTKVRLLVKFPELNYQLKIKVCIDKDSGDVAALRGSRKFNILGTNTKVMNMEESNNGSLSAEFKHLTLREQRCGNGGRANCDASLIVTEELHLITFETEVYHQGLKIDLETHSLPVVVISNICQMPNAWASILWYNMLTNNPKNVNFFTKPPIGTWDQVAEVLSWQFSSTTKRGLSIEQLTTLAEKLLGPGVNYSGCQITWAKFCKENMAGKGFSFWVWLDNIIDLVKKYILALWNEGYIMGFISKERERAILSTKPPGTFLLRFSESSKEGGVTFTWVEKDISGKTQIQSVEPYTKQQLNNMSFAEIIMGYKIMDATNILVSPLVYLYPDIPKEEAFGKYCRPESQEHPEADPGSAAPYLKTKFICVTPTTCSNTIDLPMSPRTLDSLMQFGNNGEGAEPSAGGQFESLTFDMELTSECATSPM
Sequence of UniProt P42336 (whole entry, looked up): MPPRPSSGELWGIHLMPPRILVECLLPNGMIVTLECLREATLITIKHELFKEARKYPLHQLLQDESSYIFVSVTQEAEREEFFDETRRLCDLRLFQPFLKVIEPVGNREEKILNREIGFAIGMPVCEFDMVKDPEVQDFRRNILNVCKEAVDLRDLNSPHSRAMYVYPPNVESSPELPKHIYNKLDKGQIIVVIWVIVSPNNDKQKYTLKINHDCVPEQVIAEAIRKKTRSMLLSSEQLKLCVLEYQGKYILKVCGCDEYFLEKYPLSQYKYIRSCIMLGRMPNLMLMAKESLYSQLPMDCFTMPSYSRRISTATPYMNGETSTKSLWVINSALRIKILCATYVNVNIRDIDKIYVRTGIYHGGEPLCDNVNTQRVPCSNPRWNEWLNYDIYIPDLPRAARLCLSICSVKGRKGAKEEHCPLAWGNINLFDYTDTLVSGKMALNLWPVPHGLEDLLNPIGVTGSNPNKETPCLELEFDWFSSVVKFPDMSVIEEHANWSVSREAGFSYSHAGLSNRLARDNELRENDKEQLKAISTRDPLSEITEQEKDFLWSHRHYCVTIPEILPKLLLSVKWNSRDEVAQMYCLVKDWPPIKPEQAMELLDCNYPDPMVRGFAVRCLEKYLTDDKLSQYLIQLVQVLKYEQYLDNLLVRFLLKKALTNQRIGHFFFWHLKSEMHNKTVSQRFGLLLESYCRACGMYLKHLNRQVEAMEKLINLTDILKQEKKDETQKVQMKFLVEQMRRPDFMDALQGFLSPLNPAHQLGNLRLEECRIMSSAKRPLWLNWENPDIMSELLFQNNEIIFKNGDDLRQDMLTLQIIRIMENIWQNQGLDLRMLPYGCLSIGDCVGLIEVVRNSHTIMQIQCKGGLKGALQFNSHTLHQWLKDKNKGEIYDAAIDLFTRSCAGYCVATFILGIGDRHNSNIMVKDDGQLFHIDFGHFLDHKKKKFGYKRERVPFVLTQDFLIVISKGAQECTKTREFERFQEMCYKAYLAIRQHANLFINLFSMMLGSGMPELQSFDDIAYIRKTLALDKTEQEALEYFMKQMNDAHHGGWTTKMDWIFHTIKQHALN
Sequence of UniProt P24666 (whole entry, looked up): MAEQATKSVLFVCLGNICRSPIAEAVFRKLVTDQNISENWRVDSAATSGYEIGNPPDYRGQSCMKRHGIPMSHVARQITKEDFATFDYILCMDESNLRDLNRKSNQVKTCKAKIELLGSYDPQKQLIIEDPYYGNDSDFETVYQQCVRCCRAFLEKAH

SMILES	target	test	test system	conditions	IC50
Oc1ccc([C@H]2Oc3cc(O)cc(O)c3[C@H](c3c(O)cc(O)c4c3O[C@H](c3ccc(O)c(O)c3)[C@@H](O)[C@@H]4c3c(O)cc(O)c4c3O[C@H](c3ccc(O)c(O)c3)[C@H](O)C4)[C@H]2O)cc1	alpha-glucosidase (Bacillus stearothermophilus)	inhibitor	–	20 min, pH 6.8, 60 °C, added: pNPG substrate	4.5 ± 0.7 µM
CC12CC3CC(C1)CC(NC(=O)NC14CC5CC(CC(C)(C5)C1)C4)(C3)C2	Ephx2 (Mus musculus, UniProt P34914)	enzyme activity, inhibitor, fluorescence	–	–	0.0055 µM
C[C@H](NC(=O)CNC(=O)[C@H](Cc1ccc(O)cc1)NC(=O)[C@@H](N)CSSC[C@H](N)C(=O)N[C@@H](Cc1ccc(O)cc1)C(=O)NCC(=O)N[C@@H](C)C(=O)N[C@@H](CCCCN)C(N)=O)C(=O)N[C@@H](CCCCN)C(N)=O	Calpain-10 (Oryctolagus cuniculus, UniProt G1TPK4)	enzyme activity, inhibitor	isolated rabbit mitochondria	–	0.2 µM and ~0.2 µM
CCNC(=O)[C@H]1O[C@@H](n2cnc3c(NCCCNC(=O)CCCCCNC(=O)COc4ccc(/C=C/C5=[N+]6C(=Cc7ccc(-c8cccs8)n7[B-]6(F)F)C=C5)cc4)ncnc32)[C@H](O)[C@@H]1O	ADORA1	ligand displacement in cells, radioligand	–	–	0.309 µM
COc1ccc(NC(=O)c2cccc(S(=O)(=O)NC3CC3)c2)cc1	Ectonucleoside triphosphate diphosphohydrolase 3 (Homo sapiens, UniProt O75355)	enzyme activity, inhibitor, absorbance	–	–	46.2 µM
CC(/C=C/C(=O)NO)=C\[C@@H](C)C(=O)c1ccc(N(C)C)cc1	ACP1 (Homo sapiens, UniProt P24666)	enzyme activity, inhibitor, fluorescence	–	–	> 100 µM
O=Cc1ccc(C=O)cc1	Tryptase beta-2 (TPSB2, Homo sapiens, UniProt P20231)	–	–	pH 7.4	> 10000 µM
N#Cc1ccc(N(Cc2ccc(OS(N)(=O)=O)cc2Br)n2cnnc2)cc1	Steryl-sulfatase (STS, Homo sapiens, UniProt P08842)	enzyme activity, inhibitor	JEG-3 intact monolayers	–	0.01 to 0.1 µM
Nc1ncnc2c1ncn2[C@@H]1O[C@H](Cn2nnc(C(O)CCC(=O)c3ccccc3C(=O)O)n2)[C@@H](O)[C@H]1O (stereo partly shown)	2-succinylbenzoate--CoA ligase (menE, Escherichia coli, UniProt P37353)	enzyme activity, inhibitor, MenB-MenE coupled	–	–	53.5 ± 2.3 µM
COc1cc(O)ccc1CC[C@H](c1ccc(O)cc1)c1cc2c(c(C)c1O)O[C@H](c1ccc(O)cc1)CC2	ALOX5 (Homo sapiens, UniProt P09917)	enzyme activity, inhibitor	–	–	0.7 µM
COc1cc(CCC(O)CC(O)CCc2ccc(O)cc2)ccc1O (stereo not shown)	PNLIP (Sus scrofa, UniProt P00591)	enzyme activity, inhibitor, absorbance	–	–	175 µM
CC(Cl)C(=O)Nc1ccc2nc(NCCCCCN(C)C)nc(NCCCCCCN(C)C)c2c1 (stereo not shown)	Histone-lysine N-methyltransferase SETDB1, triple tudor domain (SETDB1, Homo sapiens, UniProt Q15047, C385A)	binding, TR-FRET displacement	–	1 h, room temperature	9.5 ± 5.4 µM
CC(=O)NCCO[C@H]1[C@H](O)[C@@H](O)[C@@H]2O[C@@H]2[C@@H]1C(=O)O	Beta-glucuronidase (uidA, Escherichia coli, UniProt P05804)	enzyme activity, inhibitor, fluorescence	–	pH 5, with preincubation	> 100 µM
CCNC(=O)[C@H]1O[C@@H](n2cnc3c(NCCCCNS(=O)(=O)c4cccc5c(N(C)C)cccc45)ncnc32)[C@H](O)[C@@H]1O	ADORA1	ligand displacement in cells, radioligand	–	–	> 100 µM
O=S(=O)(Nc1cscn1)c1c(F)cc(NCc2c(F)ccc(F)c2CN2CCC2)cc1F	SCN9A (Homo sapiens, UniProt Q15858)	sodium current, inhibitor, automated patch clamp	–	inactivated state, Vh -60 mV	0.192 µM
CC(C)CN(CC(=O)NCCCCCCNC(=O)c1ccc(-c2n[nH]c3ccccc23)cc1)C(=O)C(C)NC(=O)C1COc2ccccc2C1 (stereo not shown)	MAPK10	ligand displacement, FP	–	–	1.04 µM
CC(C)C[C@@H](NC(=O)[C@@H](Cc1ccccc1)NC(=O)[C@H]1CCCN1C(=O)[C@@H](CCC(N)=O)NC(=O)[C@H](NC(=O)[C@H]1CCCN1C(=O)[C@@H](CCCNC(=N)N)NC(=O)[C@@H](CO)NC(=O)[C@@H](CCC(N)=O)NC(=O)[C@@H](CC(=O)O)NC(=O)[C@H](N)[C@H](C)O)C(C)C)C(=O)N[C@H](CC(N)=O)C(=O)N[C@H](CC(C)C)C(=O)N[C@@H](C(=O)N[C@@H](C(=O)N1CCC[C@@H]1C(=O)N[C@H](CCCNC(=N)N)C(=O)N[C@H](CCCCN)C(=O)N1CCC[C@@H]1C(=O)N[C@H](CCCNC(=N)N)C(N)=O)[C@H](C)O)[C@H](C)O	MAPK10	enzyme activity, inhibitor, radiometric	–	pH 7.5	415 µM
CCCCCCCCCCCCCCCCC1=C[C@H](C(=O)O)[C@H]2C(=O)C(C(=O)OC)=C(CCCCCCCCCCCCCCCC)[C@H]2[C@H]1C(=O)OC	protein kinase A	inhibitor	–	–	> 50 µM
CC(Oc1cc(OC(C)C(=O)O)c2c(=O)cc(-c3ccccc3)oc2c1)C(=O)O (stereo not shown)	P2Y purinoceptor 14 (P2RY14, Homo sapiens, UniProt Q15391)	antagonist	–	–	0.00771 µM and < 0.01 µM
COc1cccc(Cc2cc(C)nn(S(=O)(=O)c3cccc4c(N(C)C)cccc34)c2=O)c1	FPR1 (Homo sapiens, UniProt P21462)	calcium signal, antagonist	–	–	17.7 µM
COC(=O)C12CC(C(=O)N3CCn4c(nc(C(=O)Nc5cccc(-c6ccc7c(c6)OCCO7)c5C)c4Cl)C3)(C1)C2	Programmed cell death 1 ligand 1, with PD-1 (CD274, Homo sapiens, UniProt Q9NZQ7)	PD-1/PD-L1 binding, inhibitor, TR-FRET	–	room temperature	0.19 µM
C=CCOC(=O)C1C(C=O)=Cc2cc3c(cc2C1c1cc(OC)c(OC)c(OC)c1)OCO3 (stereo not shown)	tubulin alpha/beta (Leishmania infantum, UniProt A0A381MCS3+A4HTR0)	tubulin polymerization, inhibitor	–	37 °C	0.75 µM and 0.7 µM
CCCNC(=O)NC1CC=C(c2cc3c(Nc4cc5ncsc5cc4F)ncnc3s2)CC1 (racemic)	RIPK2	enzyme activity, inhibitor	–	–	0.011 µM

SMILES	target	test	test system	conditions	IC50
Cc1cc(/C=C2\SC(=S)NC2=O)ccc1O	PIK3CA (Homo sapiens, UniProt P42336)	enzyme activity, inhibitor, radiometric	–	–	0.15 µM
CC1(C)CC[C@]2(C)CC[C@]3(C)[C@H]([C@@H](O)C[C@@H]4[C@@]5(C)CCCC(C)(C)[C@@H]5CC[C@]43C)[C@@H]2C1	α-glucosidase Saccharomyces cerevisiae	–	–	added: p-nitrophenyl glucoside	> 100 µM
COC(=O)CCSc1nc2n(n1)C(c1cccc(OC)c1)C(C(=O)Nc1cncc(C)c1)=C(C)N2 (stereo not shown)	Phosphatidylinositol 4,5-bisphosphate 3-kinase catalytic subunit delta isoform, with p85 (PIK3CD, Homo sapiens, UniProt O00329)	enzyme activity, inhibitor, ADP detection	–	–	0.66 µM
COc1ncc2nc(C)n(Cc3ccc(S(N)(=O)=O)cc3)c2c1-c1ccccc1	ENPP1 (Homo sapiens, UniProt P22413)	enzyme activity, inhibitor	–	–	0.00255 µM
O=C(/C=C/c1ccccc1Cl)NO	hdac10 (Danio rerio, UniProt F1QCV2)	–	–	–	0.185 ± 0.047 µM
COc1ccc(OC)c(/C=C/C(=O)c2ccc3c(c2)OCO3)c1	ABCG2 (Homo sapiens, UniProt Q9UNQ0)	transporter efflux, inhibitor, flow cytometry	HEK293	30 min	1.07 µM
COc1ccc(C(OCCN2CCCC(C(=O)O)C2)(c2ccc(OC)cc2)c2ccc(OC)cc2)cc1 (stereo not shown)	SLC6A1 (Homo sapiens, UniProt P30531)	transporter uptake, inhibitor, radiometric	–	–	> 100 µM
CCOC(=O)C(CC)NC(=O)CN1C(=O)S/C(=C\c2ccc([N+](=O)[O-])cc2)C1=O (stereo not shown)	α-amylase	enzyme activity, DNSA colorimetric	–	–	> 100 µM
CCc1nc2ccc(Cl)cn2c1C(=O)NC/C=C(\C)CC/C=C(\C)CCC=C(C)C	Cytochrome bc1-aa3 supercomplex (Mycolicibacterium smegmatis, UniProt A0R052+I7GD61)	oxygen consumption, Clark electrode	–	added: NADH	0.441 ± 0.138 µM
CNC(=O)C1CCN(c2cc(C)c(F)cc2NC(=O)c2ccc(-c3c(C)ccc4[nH]ncc34)c(C)c2)CC1	FGR (Homo sapiens, UniProt P09769)	target engagement in cells, BRET	–	–	4.58 µM
C=CC(=O)N1CCCCC1C(=O)O (stereo not shown)	Fosb/Jund, ΔFosB isoform (Mus musculus, UniProt P13346+P15066)	ΔFOSB/JUND DNA binding, fluorescence polarization	–	15 min, added: TMR-cdk5 oligonucleotide	71.4 ± 3.1 µM
CCOC(=O)c1ccc2c(c1)n(CC)[c]([Au-][Cl])[n+]2CC	trxB (Escherichia coli, UniProt P0A9P4)	enzyme activity, inhibitor, absorbance	–	with preincubation	0.45 µM
CN1C(=O)/C(=C2\Nc3ccccc3C2=O)c2cccc(Br)c21	Dyrk1a (Rattus norvegicus, UniProt Q63470)	–	–	–	> 10 µM
CC1=C(/C=C/C(=O)N2CCN(C(N)=O)CC2)C(C)(C)CCC1	Rhodopsin (RHO, Homo sapiens, UniProt P08100)	9-cis-retinal binding rate, competitor	–	cell-free, incomplete competition, added: 9-cis-retinal 2.0 µM	17.8 to 28.6 µM
CC1OC(Oc2c(-c3ccc(O)c(O)c3)oc3cc(O)cc(O)c3c2=O)C(O)C(O)C1O (stereo not shown)	PTPN1 (Homo sapiens, UniProt P18031)	enzyme activity, inhibitor, absorbance	–	–	> 100 µM
COCc1cc2c(cn1)CN(C(=O)Nc1nc(-c3ccc(F)cc3)ccc1N)C2	HDAC7 (Homo sapiens, UniProt Q8WUI4)	deacetylase activity, inhibitor, recombinant enzyme	–	–	> 30 µM
Cc1oc2ccc(OCC(=O)O)cc2c1C(=O)OC(C)C	STAT3 (Homo sapiens, UniProt P40763)	protein-protein interaction, inhibitor, ELISA	–	–	~15 µM
Oc1cccc(Nc2ncnc3[nH]c4cc(Br)ccc4c23)c1	PTK6 (Homo sapiens, UniProt Q13882)	enzyme activity, inhibitor, ADP detection	–	–	1 µM
O=C(O[C@@H]1Cc2c(O)cc(O)cc2O[C@@H]1c1cc(O)c(O)c(O)c1)c1cc(O)c(O)c(O)c1	Genome polyprotein, protease (Hepatitis C virus genotype 1a, UniProt P27958)	enzyme activity, inhibitor, fluorescence	–	–	> 200 µM
CC(C)C(=O)N1CCC=C(c2cc3c(Nc4cc5ncsc5cc4F)ncnc3s2)C1	RIPK2	enzyme activity, inhibitor	–	–	0.009 µM
CC[C@H](C)[C@@H]1NC(=O)[C@H](Cc2c[nH]c3ccccc23)NC(=O)CNC(=O)c2cc3cc(c2)C(=O)NC[C@H](NC(=O)[C@H](Cc2ccc(O)cc2)NC1=O)C(=O)N[C@@H](Cc1ccccc1)C(=O)N[C@@H](Cc1ccc2ccccc2c1)C(=O)N[C@@H](CCCNC(=N)N)C(=O)N[C@@H](CCCNC(=N)N)C(=O)N[C@@H](CCCNC(=N)N)C(=O)N[C@H](C(=O)N[C@@H](CCCNC(=N)N)C(=O)NCCC(=O)N[C@@H](CCCCN)C(N)=O)CNC3=O	NF-kappa-B essential modulator, with IKK-beta (IKBKG, Homo sapiens, UniProt Q9Y6K9)	inhibitor, HTRF	–	–	1.8 ± 0.3 µM
COc1ccc(Nc2nc(Nc3ccc(OCCF)cc3)ncc2Br)cc1	PTK2 (Homo sapiens, UniProt Q05397)	enzyme activity, inhibitor, TR-FRET	–	–	1.09 µM
COc1ccc(SCC(=O)c2ccc(O)cc2O)cc1	ESR2 (Homo sapiens, UniProt Q92731)	coactivator recruitment, antagonist	–	–	5.48 µM

Some of these lines once more:
SMILES	target	test	test system	conditions	IC50
Oc1ccc([C@H]2Oc3cc(O)cc(O)c3[C@H](c3c(O)cc(O)c4c3O[C@H](c3ccc(O)c(O)c3)[C@@H](O)[C@@H]4c3c(O)cc(O)c4c3O[C@H](c3ccc(O)c(O)c3)[C@H](O)C4)[C@H]2O)cc1	alpha-glucosidase (Bacillus stearothermophilus)	inhibitor	–	20 min, pH 6.8, 60 °C, added: pNPG substrate	4.5 ± 0.7 µM
Oc1cccc(Nc2ncnc3[nH]c4cc(Br)ccc4c23)c1	PTK6 (Homo sapiens, UniProt Q13882)	enzyme activity, inhibitor, ADP detection	–	–	1 µM
CC(=O)NCCO[C@H]1[C@H](O)[C@@H](O)[C@@H]2O[C@@H]2[C@@H]1C(=O)O	Beta-glucuronidase (uidA, Escherichia coli, UniProt P05804)	enzyme activity, inhibitor, fluorescence	–	pH 5, with preincubation	> 100 µM
O=Cc1ccc(C=O)cc1	Tryptase beta-2 (TPSB2, Homo sapiens, UniProt P20231)	–	–	pH 7.4	> 10000 µM
COc1ncc2nc(C)n(Cc3ccc(S(N)(=O)=O)cc3)c2c1-c1ccccc1	ENPP1 (Homo sapiens, UniProt P22413)	enzyme activity, inhibitor	–	–	0.00255 µM
